Measured values gathered from unrelated publications.
Every numbered part comes from another study and shows a few of its results, in no order. “And” joins repeats or separate records; there may be more than shown.
Chain of UniProt P10721 (whole entry, unmodified, looked up): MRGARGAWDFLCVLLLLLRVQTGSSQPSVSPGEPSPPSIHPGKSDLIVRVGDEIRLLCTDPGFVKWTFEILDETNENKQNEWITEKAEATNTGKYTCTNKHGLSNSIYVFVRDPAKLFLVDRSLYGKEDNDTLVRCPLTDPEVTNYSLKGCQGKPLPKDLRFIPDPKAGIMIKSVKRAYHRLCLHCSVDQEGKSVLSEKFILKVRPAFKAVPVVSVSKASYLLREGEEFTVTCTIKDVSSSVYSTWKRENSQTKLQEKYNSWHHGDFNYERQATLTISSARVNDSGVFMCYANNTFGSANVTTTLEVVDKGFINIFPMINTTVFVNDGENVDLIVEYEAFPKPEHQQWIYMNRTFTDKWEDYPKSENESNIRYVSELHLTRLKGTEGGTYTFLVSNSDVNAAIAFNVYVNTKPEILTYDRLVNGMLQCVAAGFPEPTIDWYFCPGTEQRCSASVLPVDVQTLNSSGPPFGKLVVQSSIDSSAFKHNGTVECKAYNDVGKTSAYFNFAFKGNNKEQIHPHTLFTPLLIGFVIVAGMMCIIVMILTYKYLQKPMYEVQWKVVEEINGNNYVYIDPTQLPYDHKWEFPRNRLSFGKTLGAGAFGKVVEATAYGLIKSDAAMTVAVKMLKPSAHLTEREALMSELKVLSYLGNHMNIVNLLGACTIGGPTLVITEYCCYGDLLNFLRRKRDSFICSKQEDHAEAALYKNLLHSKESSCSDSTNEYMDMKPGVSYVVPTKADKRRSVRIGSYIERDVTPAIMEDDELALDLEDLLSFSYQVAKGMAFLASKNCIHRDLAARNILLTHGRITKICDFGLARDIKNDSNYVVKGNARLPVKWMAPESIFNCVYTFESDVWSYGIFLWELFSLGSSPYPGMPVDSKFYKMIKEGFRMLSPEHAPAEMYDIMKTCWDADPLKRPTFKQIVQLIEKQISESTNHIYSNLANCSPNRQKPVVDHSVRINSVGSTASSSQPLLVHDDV
Chain of UniProt P22455 (whole entry, looked up): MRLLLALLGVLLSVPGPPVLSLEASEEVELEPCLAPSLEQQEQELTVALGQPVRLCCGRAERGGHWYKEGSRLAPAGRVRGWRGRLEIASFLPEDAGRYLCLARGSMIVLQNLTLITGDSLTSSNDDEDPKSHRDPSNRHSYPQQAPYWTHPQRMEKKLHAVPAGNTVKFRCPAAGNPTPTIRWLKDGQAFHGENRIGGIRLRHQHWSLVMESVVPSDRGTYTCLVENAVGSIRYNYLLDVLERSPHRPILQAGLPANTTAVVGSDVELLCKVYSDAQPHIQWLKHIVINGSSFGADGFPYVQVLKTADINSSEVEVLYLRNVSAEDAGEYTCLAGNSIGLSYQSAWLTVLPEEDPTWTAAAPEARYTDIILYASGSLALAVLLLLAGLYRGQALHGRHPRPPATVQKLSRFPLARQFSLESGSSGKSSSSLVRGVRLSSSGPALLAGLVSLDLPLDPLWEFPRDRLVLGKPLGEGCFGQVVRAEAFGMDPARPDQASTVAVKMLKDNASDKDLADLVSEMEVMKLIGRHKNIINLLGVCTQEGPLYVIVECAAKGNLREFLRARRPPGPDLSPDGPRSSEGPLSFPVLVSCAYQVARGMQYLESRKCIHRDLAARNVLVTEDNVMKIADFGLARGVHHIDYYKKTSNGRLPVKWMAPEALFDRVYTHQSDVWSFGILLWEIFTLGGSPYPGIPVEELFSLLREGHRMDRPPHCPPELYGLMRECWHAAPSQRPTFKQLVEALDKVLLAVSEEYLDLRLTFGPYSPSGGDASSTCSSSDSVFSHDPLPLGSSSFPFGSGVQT
Chain of UniProt P42336 (whole entry, unmodified, looked up): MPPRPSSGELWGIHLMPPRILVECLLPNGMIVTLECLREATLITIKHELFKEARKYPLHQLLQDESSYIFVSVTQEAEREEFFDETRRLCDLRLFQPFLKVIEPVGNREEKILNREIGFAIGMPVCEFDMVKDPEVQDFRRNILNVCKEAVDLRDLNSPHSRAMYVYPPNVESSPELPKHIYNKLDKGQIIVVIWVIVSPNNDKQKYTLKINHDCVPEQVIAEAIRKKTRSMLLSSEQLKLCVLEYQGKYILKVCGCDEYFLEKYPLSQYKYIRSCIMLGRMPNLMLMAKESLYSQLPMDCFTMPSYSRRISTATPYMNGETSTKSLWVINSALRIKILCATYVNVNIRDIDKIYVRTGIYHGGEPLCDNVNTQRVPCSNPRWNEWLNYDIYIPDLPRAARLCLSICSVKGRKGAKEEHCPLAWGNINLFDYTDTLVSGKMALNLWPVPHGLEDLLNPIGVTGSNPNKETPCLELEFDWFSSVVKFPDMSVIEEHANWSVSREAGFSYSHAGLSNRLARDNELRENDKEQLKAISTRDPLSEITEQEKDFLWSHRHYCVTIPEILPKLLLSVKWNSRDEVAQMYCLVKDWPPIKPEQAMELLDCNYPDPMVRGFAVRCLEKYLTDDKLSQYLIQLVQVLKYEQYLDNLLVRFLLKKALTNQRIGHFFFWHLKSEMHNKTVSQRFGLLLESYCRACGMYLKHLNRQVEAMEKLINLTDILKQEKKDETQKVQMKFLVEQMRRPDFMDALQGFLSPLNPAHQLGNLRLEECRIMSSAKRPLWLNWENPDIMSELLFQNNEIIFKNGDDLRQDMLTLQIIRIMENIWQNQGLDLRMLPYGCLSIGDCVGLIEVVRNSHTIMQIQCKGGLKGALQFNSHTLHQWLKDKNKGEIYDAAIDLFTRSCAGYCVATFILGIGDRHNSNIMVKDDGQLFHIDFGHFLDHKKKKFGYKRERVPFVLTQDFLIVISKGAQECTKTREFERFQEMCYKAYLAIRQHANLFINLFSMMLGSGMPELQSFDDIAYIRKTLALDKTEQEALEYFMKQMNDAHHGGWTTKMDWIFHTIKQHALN
Chain of UniProt Q9H2K8 (whole entry, looked up): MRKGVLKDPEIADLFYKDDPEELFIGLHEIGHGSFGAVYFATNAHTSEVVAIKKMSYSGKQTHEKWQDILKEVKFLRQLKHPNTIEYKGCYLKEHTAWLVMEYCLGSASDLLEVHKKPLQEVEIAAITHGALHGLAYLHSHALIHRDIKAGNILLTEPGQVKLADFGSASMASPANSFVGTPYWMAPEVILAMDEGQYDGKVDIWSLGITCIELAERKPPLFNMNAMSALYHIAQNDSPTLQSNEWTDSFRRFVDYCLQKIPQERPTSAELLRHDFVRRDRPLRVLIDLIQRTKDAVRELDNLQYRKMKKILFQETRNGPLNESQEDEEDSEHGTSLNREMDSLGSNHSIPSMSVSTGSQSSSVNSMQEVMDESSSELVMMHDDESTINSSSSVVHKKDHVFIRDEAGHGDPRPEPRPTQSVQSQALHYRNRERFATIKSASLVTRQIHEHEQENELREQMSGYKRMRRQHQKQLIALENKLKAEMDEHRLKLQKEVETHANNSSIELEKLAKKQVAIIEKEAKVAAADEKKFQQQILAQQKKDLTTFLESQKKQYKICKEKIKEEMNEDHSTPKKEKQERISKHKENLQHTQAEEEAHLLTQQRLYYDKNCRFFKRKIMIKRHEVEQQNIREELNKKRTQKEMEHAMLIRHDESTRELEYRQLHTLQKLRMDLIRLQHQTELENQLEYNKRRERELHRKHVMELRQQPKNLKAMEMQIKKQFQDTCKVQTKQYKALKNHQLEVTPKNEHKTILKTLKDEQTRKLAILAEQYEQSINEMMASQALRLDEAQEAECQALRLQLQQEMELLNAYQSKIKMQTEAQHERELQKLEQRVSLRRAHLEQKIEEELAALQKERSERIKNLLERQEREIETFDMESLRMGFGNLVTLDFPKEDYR
Chain of UniProt P45983 (whole entry, looked up): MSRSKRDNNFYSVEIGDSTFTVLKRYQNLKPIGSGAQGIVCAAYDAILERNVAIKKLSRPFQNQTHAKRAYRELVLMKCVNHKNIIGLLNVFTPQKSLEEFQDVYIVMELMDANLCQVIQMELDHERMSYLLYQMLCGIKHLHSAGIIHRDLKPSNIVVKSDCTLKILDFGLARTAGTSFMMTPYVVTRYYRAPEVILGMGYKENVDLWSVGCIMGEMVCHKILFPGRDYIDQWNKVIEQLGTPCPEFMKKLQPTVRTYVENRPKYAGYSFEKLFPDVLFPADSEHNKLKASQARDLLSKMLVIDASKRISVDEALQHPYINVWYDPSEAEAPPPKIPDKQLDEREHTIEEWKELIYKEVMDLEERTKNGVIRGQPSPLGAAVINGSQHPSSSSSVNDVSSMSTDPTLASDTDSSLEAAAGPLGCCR

Sample 1 — observed: enzyme activity; mode: inhibitor; concentration: 0.5 µM; baseline: control; quantity: remaining activity
Target: Cyclin-dependent kinase 6, with cyclin D1 (CDK6, Homo sapiens, UniProt Q00534)
Chain of UniProt Q00534 (whole entry, looked up): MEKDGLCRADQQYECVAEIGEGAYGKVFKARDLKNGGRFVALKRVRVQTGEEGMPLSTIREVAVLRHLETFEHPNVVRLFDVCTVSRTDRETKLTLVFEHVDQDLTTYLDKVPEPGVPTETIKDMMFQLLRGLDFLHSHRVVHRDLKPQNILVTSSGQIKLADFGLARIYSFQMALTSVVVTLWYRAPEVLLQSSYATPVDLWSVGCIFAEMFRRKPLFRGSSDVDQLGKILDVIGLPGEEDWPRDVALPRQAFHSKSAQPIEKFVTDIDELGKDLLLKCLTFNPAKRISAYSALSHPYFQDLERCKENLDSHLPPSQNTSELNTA
CCCCc1c(-c2ccc(OC)cc2)[nH]c2nccnc12: 54.8%
COc1cccc(-c2cc(=O)c3ccccc3o2)c1N: 95.5%
O=C1Nc2ccc(Br)cc2/C1=C/c1cc2c([nH]1)CCCC2: 90.4%
Cc1ccc(S(=O)(=O)/C=C/C#N)cc1: 91.4%
CCCNC(=O)Nc1ccc(Oc2ncnc3cc(OC)c(OC)cc23)cc1Cl: 92.9%
COc1ccc2c(c1)c(C1=C(c3c[nH]c4ccccc34)C(=O)NC1=O)cn2CCCN(C)C: 64%
N#Cc1cnc2cnc(NCc3cccnc3)cc2c1Nc1ccc(F)c(Cl)c1: 92.2%
O=c1cc(N2CCOCC2)oc2c(-c3ccccc3)cccc12: 97.9%
Oc1cccc(-c2nc(N3CCOCC3)c3oc4ncccc4c3n2)c1: 95.6%
c1ccc2c(-c3ccncc3)c[nH]c2c1: 97.6%
O=C1Nc2ccccc2/C1=C\c1c(Cl)[nH]c2ccccc12: 105%

Sample 2 — technique: competition with immobilised ligand; quantity: remaining binding
SMILES: CNC(=O)c1ccc(Nc2ncc(C(F)(F)F)c(NCc3nccnc3N(C)S(C)(=O)=O)n2)cc1
Mast/stem cell growth factor receptor Kit (KIT, Homo sapiens, UniProt P10721, V559D/V654A); cell-free assay; 0.1 µM: 100%
Tyrosine-protein kinase Tec (TEC, Homo sapiens, UniProt P42680); cell-free assay; 0.1 µM: 100%
Mast/stem cell growth factor receptor Kit (KIT, Homo sapiens, UniProt P10721, T670I/V559D); cell-free assay; 0.1 µM: 100%
Tyrosine-protein kinase Fes/Fps (FES, Homo sapiens, UniProt P07332); cell-free assay; 0.1 µM: 82%
Dual specificity mitogen-activated protein kinase kinase 6 (MAP2K6, Homo sapiens, UniProt P52564); cell-free assay; 0.1 µM: 77%
Cyclin-dependent kinase 2 (CDK2, Homo sapiens, UniProt P24941); cell-free assay; 0.1 µM: 97%
Serine/threonine-protein kinase TAO3 (TAOK3, Homo sapiens, UniProt Q9H2K8); cell-free assay; 0.1 µM: 26%
Fibroblast growth factor receptor 4 (FGFR4, Homo sapiens, UniProt P22455); cell-free assay; 0.1 µM: 95%
Focal adhesion kinase 1 (PTK2, Homo sapiens, UniProt Q05397); binding; 1 µM: 0.2%
Mitogen-activated protein kinase 8 (MAPK8, Homo sapiens, UniProt P45983); cell-free assay; 0.1 µM: 100%
Rho-associated protein kinase 1 (ROCK1, Homo sapiens, UniProt Q13464); cell-free assay; 0.1 µM: 100%
Phosphatidylinositol 4,5-bisphosphate 3-kinase catalytic subunit alpha isoform (PIK3CA, Homo sapiens, UniProt P42336, I800L); cell-free assay; 0.1 µM: 100%
Serine/threonine-protein kinase TNNI3K (TNNI3K, Homo sapiens, UniProt Q59H18); cell-free assay; 0.1 µM: 100%

Sample 3 — observed: enzyme activity; mode: inhibitor; concentration: 10 µM; quantity: inhibition
Target: Calcium/calmodulin-dependent protein kinase type II subunit alpha (CAMK2A, Homo sapiens, UniProt Q9UQM7)
Chain of UniProt Q9UQM7 (whole entry, looked up): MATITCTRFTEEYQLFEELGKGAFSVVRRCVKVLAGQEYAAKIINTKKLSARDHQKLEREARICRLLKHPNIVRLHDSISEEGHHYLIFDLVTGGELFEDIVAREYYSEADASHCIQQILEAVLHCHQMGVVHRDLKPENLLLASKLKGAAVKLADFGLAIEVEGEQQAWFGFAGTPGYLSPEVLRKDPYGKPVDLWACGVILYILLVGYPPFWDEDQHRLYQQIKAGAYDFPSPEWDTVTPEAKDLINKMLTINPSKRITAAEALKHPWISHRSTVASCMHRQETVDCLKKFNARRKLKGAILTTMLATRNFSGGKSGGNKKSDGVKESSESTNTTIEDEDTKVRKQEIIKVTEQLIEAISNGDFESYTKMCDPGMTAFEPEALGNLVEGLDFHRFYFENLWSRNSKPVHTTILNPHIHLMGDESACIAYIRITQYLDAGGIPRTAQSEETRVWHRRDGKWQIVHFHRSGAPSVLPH
OCc1ccc(O[C@@H]2O[C@H](CO)[C@@H](O)[C@H](O)[C@H]2O)cc1: -3%
CCOC(=O)[C@H](CCc1ccccc1)N[C@@H](C)C(=O)N1CCC[C@H]1C(=O)O: 7%
CCOc1ccccc1O[C@H](c1ccccc1)[C@H]1CNCCO1 (racemic): -6%
COc1cc2c(cc1O)CC[n+]1cc3c4c(ccc3cc1-2)OCO4: -11%
CC(=O)c1ccc(C)cc1: 3%
COC(=O)[C@]1(O)C[C@@H](O)[C@@H](O)[C@H](OC(=O)/C=C/c2ccc(O)c(O)c2)C1: 13%

Other studies, line by line
CC(=O)N[C@@H](Cc1c[nH]c2ccccc12)C(=O)N[C@@H](CCC(=O)C=[N+]=[N-])C(=O)OC(C)C — sedoheptulose level (UPLC-MS/MS; EL4 tumor, C57BL/6 CES1-/- mice, tumor; subcutaneous, 0.3 mg/kg DON equivalent daily, 5 days; higher = more metabolite): 3.47e+06 a.u. and 3.21e+06 a.u. and 3.73e+06 a.u. and 2.34e+06 a.u. and 3.4e+06 a.u. and 3.66e+06 a.u.

Repeated from above (sample 3):
CCOC(=O)[C@H](CCc1ccccc1)N[C@@H](C)C(=O)N1CCC[C@H]1C(=O)O: 7%
CCOc1ccccc1O[C@H](c1ccccc1)[C@H]1CNCCO1 (racemic): -6%
COc1cc2c(cc1O)CC[n+]1cc3c4c(ccc3cc1-2)OCO4: -11%
